Experimental data gathered from unrelated publications.
Compare with care: the assays were run in different laboratories. Values joined by “and” are separate records of one study, mostly repeats; a detail may differ. Numbers after ± are the reported error.

| Compound | assay | test system | conditions | how to read | measurement | value |
| --- | --- | --- | --- | --- | --- | --- |
| COc1ccccc1-c1n[nH]c2nc(NC3CCN(C(=O)Cc4ccc(F)cc4F)CC3)ncc12 | bead binding, competition bead pull-down, refers to: LINJ.30.0120 | Leishmania donovani axenic amastigote extract | 10 µM | reference: vehicle | relative abundance | 1.1 |
| Cc1ccc(C2=CC(C)(C)Oc3ccc(-c4ccc(-c5ccc(C(=O)O)cc5)[nH]4)cc32)cc1 |  | CD1 mouse, male | 20 mg/kg, 4 weeks after treatment, dosed for 2 weeks |  | testis weight | 0.0908 g and 0.0995 g and 0.1 g and 0.0939 g and 0.105 g |
| CC(C)C[C@@H]1NC(=O)[C@@H](Cc2c[nH]c3ccccc23)NC(=O)[C@H](CCCNC(=N)N)NC(=O)[C@@H](CCC(=O)O)NC(=O)[C@H](CCC(N)=O)NC(=O)[C@@H](CCC(=O)O)NC(=O)[C@H](CCCNC(=N)N)NC(=O)[C@@H](Cc2c[nH]c3ccccc23)NC1=O | Luminex, refers to: MCP-1 CCL2 | LDLr-/- mice, Western diet, liver | dose not given, 4 weeks |  | cytokine level | 470 ± 150 pg/g tissue |
| O=C(O)c1ccc(-c2nc(-c3ccccc3Cl)c3sccn23)cc1 |  | C57BL/6 mice, 5-fluorouracil treated | oral, 100 mg/kg daily, day 4 |  | platelet recovery | 55.2% and 69.1% and 79.4% and 50.3% |
| CCCCCCCCCCCC1CC(=O)NC(CC(N)=O)C(=O)NC(Cc2ccc(O)cc2)C(=O)NC(CC(N)=O)C(=O)NC(CCC(N)=O)C(=O)N2CCCC2C(=O)NC(CC(N)=O)C(=O)NC(CO)C(=O)N1 (stereo not drawn) | calcein leakage | DOPC/CHOL liposomes | concentration not given, with: 20 wt% PEG-8000 |  | maximum fusion | 71 ± 7% |
| Cc1ccc(S(=O)(=O)N2CC2C(=O)N(C)C)cc1 (stereo not drawn) |  | mouse, Lewis lung carcinoma | intraperitoneal, 170 mg/kg, 16 doses, day 14 |  | tumour volume | 931 mm3 |
| CCN(Cc1ccccc1)C(=O)CCc1nc(CN2CCN(C(=O)Cc3ccc(OC)c(OC)c3)CC2)no1 | beam walking test | mouse CCI model | 1 mg/kg, unit not given | lower is better | foot slips | 2.44 ± 0.36 |
| CC(C)[C@@H]1NC(=O)[C@@H]2CCCN2C(=O)[C@@H](C(C)C)NC(=O)[C@H]2CCCN2C(=O)[C@H](C(C)C)NC(=O)[C@@H]2CCCN2C(=O)[C@@H](C(C)C)NC(=O)[C@H]2CCCN2C(=O)[C@H](C(C)C)NC(=O)[C@@H]2CCCN2C(=O)[C@@H](C(C)C)NC(=O)[C@H]2CCCN2C1=O |  | sheep lipid bilayer | 10 µM, pH 7.4, 23 °C, with: Rb cation |  | transference number | 0.87 |
| COc1ccccc1-c1n[nH]c2nc(N[C@H]3CC[C@H](NS(=O)(=O)CC(C)C)CC3)ncc12 | bead binding, competition bead pull-down, refers to: LMJF.34.3670 | Leishmania donovani extract | 10 µM | reference: vehicle | relative abundance | 1.14 |
